{"data": "Results from different studies", "Lypla1": "Acyl-protein thioesterase 1 (Lypla1, Mus musculus, UniProt P97823)", "PLAT": "Tissue-type plasminogen activator (PLAT, Homo sapiens, UniProt P00750)", "Platelet-activating factor acetylhydrolase 2, cytoplasmic": "Platelet-activating factor acetylhydrolase 2, cytoplasmic (Mus musculus, UniProt Q8VDG7)", "HDAC8": "Histone deacetylase 8 (HDAC8, Homo sapiens, UniProt Q9BY41)", "HDAC3": "Histone deacetylase 3 (HDAC3, Homo sapiens, UniProt O15379)", "PARP1": "Poly [ADP-ribose] polymerase 1 (PARP1, Homo sapiens, UniProt P09874)", "DRD4": "D(4) dopamine receptor (DRD4, Homo sapiens, UniProt P21917)", "SPHK1": "Sphingosine kinase 1 (SPHK1, Homo sapiens, UniProt Q9NYA1)", "Breakpoint cluster region protein GAP domain": "Breakpoint cluster region protein, GAP domain (Homo sapiens, UniProt P11274)", "note": "Several values in a cell are separate wells, animals, samples, runs or records. Numbers after ± are the reported error.", "sequence of UniProt Q9UM07 (whole entry, looked up)": "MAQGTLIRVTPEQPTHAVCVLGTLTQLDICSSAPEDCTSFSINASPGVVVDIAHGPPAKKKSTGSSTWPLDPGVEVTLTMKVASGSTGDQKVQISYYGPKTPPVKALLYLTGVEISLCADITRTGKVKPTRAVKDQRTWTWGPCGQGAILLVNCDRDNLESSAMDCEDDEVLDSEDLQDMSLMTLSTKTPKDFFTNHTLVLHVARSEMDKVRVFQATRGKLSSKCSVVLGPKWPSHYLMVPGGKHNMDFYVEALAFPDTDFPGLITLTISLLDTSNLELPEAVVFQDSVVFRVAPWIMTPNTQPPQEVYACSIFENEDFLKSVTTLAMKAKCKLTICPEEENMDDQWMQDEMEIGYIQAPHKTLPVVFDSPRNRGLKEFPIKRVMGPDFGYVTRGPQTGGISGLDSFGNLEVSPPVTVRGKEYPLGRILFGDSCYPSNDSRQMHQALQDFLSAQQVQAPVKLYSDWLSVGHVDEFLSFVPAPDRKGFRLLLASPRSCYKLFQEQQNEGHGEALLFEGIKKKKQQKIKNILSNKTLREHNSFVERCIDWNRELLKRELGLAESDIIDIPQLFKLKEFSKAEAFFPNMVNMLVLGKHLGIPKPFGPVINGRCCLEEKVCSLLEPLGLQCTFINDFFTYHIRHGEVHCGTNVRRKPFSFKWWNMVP", "sequence of UniProt Q9NYA1 (whole entry, looked up)": "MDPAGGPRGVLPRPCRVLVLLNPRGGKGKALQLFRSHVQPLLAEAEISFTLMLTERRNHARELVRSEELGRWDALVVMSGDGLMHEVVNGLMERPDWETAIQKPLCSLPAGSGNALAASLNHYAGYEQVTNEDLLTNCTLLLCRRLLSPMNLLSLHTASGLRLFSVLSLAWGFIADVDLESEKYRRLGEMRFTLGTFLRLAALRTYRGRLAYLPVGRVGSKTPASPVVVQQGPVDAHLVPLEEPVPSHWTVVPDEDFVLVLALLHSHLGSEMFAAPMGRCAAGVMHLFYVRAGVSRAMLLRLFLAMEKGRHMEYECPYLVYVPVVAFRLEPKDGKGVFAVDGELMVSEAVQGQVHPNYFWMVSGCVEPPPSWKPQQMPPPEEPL", "sequence of UniProt O15379 (whole entry, looked up)": "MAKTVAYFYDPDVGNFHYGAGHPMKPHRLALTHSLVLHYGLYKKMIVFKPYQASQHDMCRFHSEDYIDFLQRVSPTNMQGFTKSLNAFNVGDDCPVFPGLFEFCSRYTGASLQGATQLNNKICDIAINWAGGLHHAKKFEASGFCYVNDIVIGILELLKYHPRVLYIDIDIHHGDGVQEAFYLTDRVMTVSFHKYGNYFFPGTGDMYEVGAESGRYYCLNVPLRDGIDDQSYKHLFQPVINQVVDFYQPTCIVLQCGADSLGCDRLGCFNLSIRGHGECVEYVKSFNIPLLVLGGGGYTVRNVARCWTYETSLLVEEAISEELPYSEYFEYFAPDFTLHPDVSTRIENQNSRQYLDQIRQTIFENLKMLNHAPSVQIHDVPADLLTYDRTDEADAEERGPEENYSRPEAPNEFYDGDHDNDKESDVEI", "sequence of UniProt P11274 (whole entry, looked up)": "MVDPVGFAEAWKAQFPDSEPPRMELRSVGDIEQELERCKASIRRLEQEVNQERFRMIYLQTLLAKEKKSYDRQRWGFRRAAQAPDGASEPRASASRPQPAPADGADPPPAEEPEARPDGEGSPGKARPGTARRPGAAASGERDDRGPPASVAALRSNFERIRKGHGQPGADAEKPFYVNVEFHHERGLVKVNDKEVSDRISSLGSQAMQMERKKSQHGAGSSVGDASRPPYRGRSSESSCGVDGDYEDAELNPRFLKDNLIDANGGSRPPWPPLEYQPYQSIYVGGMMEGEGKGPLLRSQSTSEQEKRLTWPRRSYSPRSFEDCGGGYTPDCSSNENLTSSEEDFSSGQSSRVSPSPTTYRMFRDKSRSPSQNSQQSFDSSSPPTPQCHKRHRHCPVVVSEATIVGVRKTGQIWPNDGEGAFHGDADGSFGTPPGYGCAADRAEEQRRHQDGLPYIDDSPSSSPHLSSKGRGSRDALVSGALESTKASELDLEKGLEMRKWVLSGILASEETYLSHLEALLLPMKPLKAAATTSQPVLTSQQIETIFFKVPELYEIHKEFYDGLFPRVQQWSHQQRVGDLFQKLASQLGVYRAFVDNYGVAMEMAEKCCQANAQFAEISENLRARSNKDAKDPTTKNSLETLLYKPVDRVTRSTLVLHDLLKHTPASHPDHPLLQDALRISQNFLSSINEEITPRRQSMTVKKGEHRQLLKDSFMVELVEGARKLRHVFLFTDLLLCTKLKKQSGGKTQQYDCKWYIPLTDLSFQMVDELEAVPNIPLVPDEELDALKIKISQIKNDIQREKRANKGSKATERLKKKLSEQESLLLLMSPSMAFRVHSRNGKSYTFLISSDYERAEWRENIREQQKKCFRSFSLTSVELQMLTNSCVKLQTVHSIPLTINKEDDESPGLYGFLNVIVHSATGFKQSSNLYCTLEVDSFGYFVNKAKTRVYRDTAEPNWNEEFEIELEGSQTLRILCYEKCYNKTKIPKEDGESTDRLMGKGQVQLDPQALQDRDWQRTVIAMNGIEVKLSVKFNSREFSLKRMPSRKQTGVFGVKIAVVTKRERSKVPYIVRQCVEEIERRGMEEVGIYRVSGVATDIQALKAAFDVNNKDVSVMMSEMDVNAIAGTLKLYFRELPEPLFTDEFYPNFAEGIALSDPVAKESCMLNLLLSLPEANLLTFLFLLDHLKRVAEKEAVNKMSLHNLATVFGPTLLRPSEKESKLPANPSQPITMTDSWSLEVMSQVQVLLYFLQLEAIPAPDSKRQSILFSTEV", "sequence of UniProt Q8VDG7 (whole entry, looked up)": "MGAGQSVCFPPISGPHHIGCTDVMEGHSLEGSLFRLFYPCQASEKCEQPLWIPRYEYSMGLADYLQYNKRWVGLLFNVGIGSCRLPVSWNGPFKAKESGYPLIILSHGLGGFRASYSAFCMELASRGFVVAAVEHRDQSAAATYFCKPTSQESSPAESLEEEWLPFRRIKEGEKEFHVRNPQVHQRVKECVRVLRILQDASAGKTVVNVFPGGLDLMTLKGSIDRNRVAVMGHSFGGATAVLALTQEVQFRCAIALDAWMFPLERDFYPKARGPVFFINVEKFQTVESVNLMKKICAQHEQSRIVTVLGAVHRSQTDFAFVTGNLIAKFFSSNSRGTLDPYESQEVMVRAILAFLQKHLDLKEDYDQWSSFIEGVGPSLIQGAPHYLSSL", "sequence of UniProt P21917 (whole entry, looked up)": "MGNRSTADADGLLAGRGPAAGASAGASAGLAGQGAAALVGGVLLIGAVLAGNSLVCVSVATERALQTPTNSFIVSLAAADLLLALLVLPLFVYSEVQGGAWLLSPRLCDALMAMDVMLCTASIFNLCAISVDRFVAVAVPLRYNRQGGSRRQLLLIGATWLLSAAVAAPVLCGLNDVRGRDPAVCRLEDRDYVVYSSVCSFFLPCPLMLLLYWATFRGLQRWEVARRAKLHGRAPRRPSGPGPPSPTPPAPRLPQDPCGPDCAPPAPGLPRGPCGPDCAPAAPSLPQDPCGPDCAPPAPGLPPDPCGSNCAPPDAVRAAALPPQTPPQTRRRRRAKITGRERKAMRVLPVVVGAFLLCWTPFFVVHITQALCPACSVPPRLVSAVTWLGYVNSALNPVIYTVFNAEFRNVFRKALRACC", "sequence of UniProt P00750 (whole entry, looked up)": "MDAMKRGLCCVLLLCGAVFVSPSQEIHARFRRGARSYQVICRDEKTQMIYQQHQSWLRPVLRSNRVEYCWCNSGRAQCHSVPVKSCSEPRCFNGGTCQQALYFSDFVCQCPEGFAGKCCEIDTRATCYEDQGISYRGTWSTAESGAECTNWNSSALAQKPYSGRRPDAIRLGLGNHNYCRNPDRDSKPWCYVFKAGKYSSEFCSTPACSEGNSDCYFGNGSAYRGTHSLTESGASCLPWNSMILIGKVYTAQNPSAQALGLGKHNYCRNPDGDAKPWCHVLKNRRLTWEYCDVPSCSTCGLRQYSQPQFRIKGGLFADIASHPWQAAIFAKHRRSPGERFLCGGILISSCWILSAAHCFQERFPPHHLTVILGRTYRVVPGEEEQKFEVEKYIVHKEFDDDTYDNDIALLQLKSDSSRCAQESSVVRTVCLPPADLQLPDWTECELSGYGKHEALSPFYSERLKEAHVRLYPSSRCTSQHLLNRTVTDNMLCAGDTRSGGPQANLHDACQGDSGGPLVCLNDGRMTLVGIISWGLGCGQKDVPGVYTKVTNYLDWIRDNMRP", "sequence of UniProt Q13148 (whole entry, looked up)": "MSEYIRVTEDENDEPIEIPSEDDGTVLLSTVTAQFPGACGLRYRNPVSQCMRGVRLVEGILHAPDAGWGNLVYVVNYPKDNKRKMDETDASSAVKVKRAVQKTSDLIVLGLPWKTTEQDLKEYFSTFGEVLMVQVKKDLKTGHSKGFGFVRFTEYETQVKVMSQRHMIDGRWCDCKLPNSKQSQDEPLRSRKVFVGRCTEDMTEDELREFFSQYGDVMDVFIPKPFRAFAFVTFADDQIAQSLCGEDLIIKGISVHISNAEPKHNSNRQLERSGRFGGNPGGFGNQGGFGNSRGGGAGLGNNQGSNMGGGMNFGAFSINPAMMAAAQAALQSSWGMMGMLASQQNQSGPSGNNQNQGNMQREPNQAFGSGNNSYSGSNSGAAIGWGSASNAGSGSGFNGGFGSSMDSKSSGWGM", "sequence of UniProt P97823 (whole entry, looked up)": "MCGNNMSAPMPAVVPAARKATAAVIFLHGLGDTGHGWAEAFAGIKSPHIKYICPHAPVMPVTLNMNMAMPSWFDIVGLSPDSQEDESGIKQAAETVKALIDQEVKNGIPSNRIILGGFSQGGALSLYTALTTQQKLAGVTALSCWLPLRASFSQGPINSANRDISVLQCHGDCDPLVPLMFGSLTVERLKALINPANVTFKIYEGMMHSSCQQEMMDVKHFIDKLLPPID"}
{"Compound": "O=C(N1CCOCC1)n1ccnn1", "target": "Lypla1", "conditions": "1 µM", "inhibition": "< 50%"}
{"Compound": "C[C@H](NC(=O)[C@H](CC(=O)NCC(C)(C)C)NC(=O)C(=O)c1c[nH]c2ccccc12)C(=O)NCc1ccc(F)cc1F", "target": "PLAT", "assay": "enzyme activity, inhibitor", "conditions": "100 µM", "inhibition": "26%"}
{"Compound": "C=CCN(CC=C)C(=O)n1ccnn1", "target": "Platelet-activating factor acetylhydrolase 2, cytoplasmic", "assay": "serine hydrolase activity, inhibitor, competitive gel-based ABPP", "test system": "mouse T-cell proteome", "conditions": "1 µM, 30 min, 37 °C", "inhibition": "< 50%"}
{"Compound": "CCCCCCCCCCCCCCCC(=O)N[C@@H](CCCCN)C(=O)N[C@@H](CCCCN)C(=O)N[C@@H](CO)C(=O)N[C@@H](CCCNC(=N)N)C(=O)N[C@@H](C)C(=O)N[C@@H](CC(C)C)C(=O)N[C@@H](Cc1ccccc1)C(N)=O", "target": "F2R (Homo sapiens, UniProt P25116)", "assay": "platelet aggregation, antagonist, light transmittance aggregometry", "test system": "human, platelet-rich plasma ex vivo", "conditions": "0.3 mg/kg, 24 h or discharge, with: SFLLRN 20 µM", "how to read": "relative to: baseline", "inhibition": "11%"}
{"Compound": "Cc1c(OS(=O)(=O)Oc2ccc(C(C)C)cc2)cccc1C(=O)NO", "target": "HDAC8", "assay": "enzyme activity, inhibitor, fluorescence", "conditions": "10 µM", "inhibition": "17%"}
{"Compound": "CN(C)C(=O)n1ccnn1", "target": "Lypla1", "conditions": "1 µM", "inhibition": "< 50%"}
{"Compound": "CC(=O)NCCNCc1cc(Cl)c(OCc2cccc(-c3cccc(OCCCCCCC(=O)NO)c3)c2C)cc1OCc1cccc(C#N)c1", "target": "HDAC3", "assay": "enzyme activity, inhibitor", "conditions": "1 µM", "inhibition": "74.7%"}
{"Compound": "CCn1cc(-c2cccc(C(F)(F)F)c2)c2sc(C(=N)NC3CCS(=O)(=O)CC3)cc2c1=O", "target": "TRIM24 (Homo sapiens, UniProt O15164)", "conditions": "1 µM", "inhibition": "-5.41%"}
{"Compound": "Cc1ccc(CNC(=O)[C@H](CCc2ccccc2)NC(=O)[C@H](CC(=O)NCC(C)(C)C)NC(=O)CCc2cccc(F)c2)cc1", "target": "PLAT", "assay": "enzyme activity, inhibitor", "conditions": "100 µM", "inhibition": "13%"}
{"Compound": "O=C(CC1CC2CCC1C2)NCCNC(=O)Cn1c(=O)[nH]c(=O)c2ccccc21 (stereo not shown)", "target": "PARP1", "assay": "enzyme activity, inhibitor", "conditions": "0.5 µM", "inhibition": "22%"}
{"Compound": "Cl.Cl.N[C@@H](C(=O)N1CCCC1)C1CCN(c2nccc3c(-c4ncc(Cl)cc4Cl)cccc23)CC1", "target": "PADI4 (Homo sapiens, UniProt Q9UM07)", "assay": "enzyme activity, inhibitor", "conditions": "19.5 nM, with: Ca2+ 0.4 mM", "inhibition": "2.88% and -5.05% and -0.456%"}
{"Compound": "O=C(N(c1ccccc1)c1ccccc1)n1ccnn1", "target": "Neutral cholesterol ester hydrolase 1 (Mus musculus, UniProt Q8BLF1)", "assay": "probe labeling, inhibitor, gel-based competitive ABPP", "test system": "mouse T-cell proteome", "conditions": "1 µM, 30 min, 37 °C", "inhibition": "> 95%"}
{"Compound": "O=C(CCCc1ccc2c(c1)OCCO2)NCCNC(=O)Cn1c(=O)[nH]c(=O)c2ccccc21", "target": "PARP1", "assay": "enzyme activity, inhibitor", "conditions": "50 nM", "inhibition": "0%"}
{"Compound": "CC(C)(C)CNC(=O)C[C@H](NC(=O)CCc1ccccc1)C(=O)N[C@@H](Cc1cccnc1)C(=O)NCc1ccccc1Cl", "target": "PLAT", "assay": "enzyme activity, inhibitor", "conditions": "100 µM", "inhibition": "17%"}
{"Compound": "COc1ccc(CN2CC(COc3nc(C)cs3)CC(F)(F)C2)cc1F (stereo not shown)", "target": "DRD4", "assay": "ligand displacement, radioligand", "conditions": "10 µM", "inhibition": "-4.6%"}
{"Compound": "Cc1c(COc2cc(OCc3cccc(C#N)c3)c(CNC(CO)CO)cc2Cl)cccc1-c1cccc(OCc2ccc(C(=O)NO)cc2)c1", "target": "HDAC3", "assay": "enzyme activity, inhibitor", "conditions": "1 µM", "inhibition": "28.4%"}
{"Compound": "N#Cc1c(Nc2ccccc2C(F)(F)F)s[nH]c1=O", "target": "NMNAT1 (Homo sapiens, UniProt Q9HAN9)", "assay": "enzyme activity, inhibitor", "conditions": "10 µM", "inhibition": "54%"}
{"Compound": "CCCCCCN(O)C(=O)CCCCC[C@@H]1NC(=O)[C@H]([C@@H](C)CC)NC(=O)[C@H](Cc2ccccc2C(F)(F)F)NC(=O)CCSCc2cccc(n2)CSCCCNC1=O", "target": "HDAC8", "assay": "enzyme activity, inhibitor, fluorogenic", "conditions": "30 µM", "inhibition": "15%"}
{"Compound": "C=CC(=O)Nc1cccc(-c2cnc3[nH]cc(C(=O)NC(C)(C)C)c3n2)c1", "target": "SPHK1", "assay": "kinase activity", "conditions": "0.1 µM", "inhibition": "-2% and -6%"}
{"Compound": "CN1CCN(C(=O)n2ccnn2)CC1", "target": "Platelet-activating factor acetylhydrolase 2, cytoplasmic", "assay": "serine hydrolase activity, inhibitor, competitive gel-based ABPP", "test system": "mouse T-cell proteome", "conditions": "1 µM, 30 min, 37 °C", "inhibition": "< 50%"}
{"Compound": "COc1cc(OC)c(F)c(/C=C/c2cnc3ccn(S(=O)(=O)c4cn(CCF)cn4)c3n2)c1F", "target": "IGF1R (Homo sapiens, UniProt P08069)", "conditions": "100 nM", "inhibition": "11.5%"}
{"Compound": "C=CC(=O)N1Cc2nc(-c3cc(-c4cc(Cl)cnc4Cl)c(F)cc3F)n(-c3ccncn3)c2C1", "target": "Phosphatidylinositol 4,5-bisphosphate 3-kinase catalytic subunit beta isoform, with p85 alpha (PIK3CB, Homo sapiens, UniProt P42338)", "assay": "kinome panel", "conditions": "1 µM", "inhibition": "-12%"}
{"Compound": "CN1CC[C@@H](COc2cnc(C#N)cc2-c2ccn3nc(NC(=O)C4CC4)cc3c2)C1", "target": "MOK (Homo sapiens, UniProt Q9UQ07)", "assay": "enzyme activity, inhibitor", "conditions": "1 µM", "inhibition": "-1%"}
{"Compound": "COc1ccc2c(c1)CCc1sc(N)nc1-2", "target": "Breakpoint cluster region protein GAP domain", "assay": "GAP activity", "conditions": "10 µM, selectivity counter screen", "inhibition": "88.5%"}
{"Compound": "CCCC(=O)O[C@@]1(C)CN(Cc2ccccc2)[C@H]2C[C@@H]1CC(=O)[C@@H]2C", "target": "OPRK1 (Cavia porcellus, UniProt P41144)", "assay": "binding, radioligand binding", "test system": "guinea pig brain", "conditions": "1 µM, with: [3H]U-69,593", "inhibition": "0%"}
{"Compound": "O=C(Nc1ccc(C(F)F)cc1)[C@H](CC1CCCCC1)Nc1nn2c(=O)ccnc2s1", "target": "PTPN11 (Homo sapiens, UniProt Q06124)", "assay": "enzyme activity, inhibitor", "conditions": "10 µM", "inhibition": "5%"}
{"Compound": "O=C(N1CCCC1)n1ccnn1", "target": "Platelet-activating factor acetylhydrolase 2, cytoplasmic", "assay": "serine hydrolase activity, inhibitor, competitive gel-based ABPP", "test system": "mouse T-cell proteome", "conditions": "1 µM, 30 min, 37 °C", "inhibition": "> 95%"}
{"Compound": "O=c1ccsn1Cc1ccccc1", "target": "Breakpoint cluster region protein GAP domain", "assay": "GAP activity", "conditions": "10 µM, selectivity counter screen", "inhibition": "1.17%"}
{"Compound": "CC1Cc2ccccc2N1C(=O)CN1CCN(c2ccccc2)CC1 (stereo not shown)", "target": "HTR6 (Homo sapiens, UniProt P50406)", "assay": "radioligand binding", "conditions": "concentration not given, with: [3H]LSD", "inhibition": "6.1%"}
{"Compound": "Cc1c(COc2cc(OCc3cccc(C#N)c3)c(CNCCO)cc2Cl)cccc1-c1cccc(OCc2ccc(/C=C/C(=O)NO)cc2)c1", "target": "HDAC3", "assay": "enzyme activity, inhibitor", "conditions": "1 µM", "inhibition": "24.4%"}
{"Compound": "O=[N+]([O-])c1ccc(Cn2cc(Cn3cc(CO)nn3)nn2)cc1", "target": "1-phosphatidylinositol 4,5-bisphosphate phosphodiesterase delta-1, PH domain (Plcd1, Rattus norvegicus, UniProt P10688)", "assay": "PI(4,5)P2 binding to PH domain, SPR", "conditions": "50 µM", "inhibition": "82 ± 7%"}
{"Compound": "O=C1c2sc(-c3ccc(N4CCC(F)C4)nc3F)nc2CCN1c1cccnc1 (stereo not shown)", "target": "TAR DNA-binding protein 43, aggregated (TARDBP, Homo sapiens, UniProt Q13148)", "assay": "radioligand binding", "test system": "homogenate, FTLD-TDP, type A", "conditions": "2000 nM, with: [3H]ACI-19626", "inhibition": "99.1% and 95.6%"}
{"Compound": "CN(C(=O)n1ccnn1)c1ccccc1", "target": "Platelet-activating factor acetylhydrolase 2, cytoplasmic", "assay": "serine hydrolase activity, inhibitor, competitive gel-based ABPP", "test system": "mouse T-cell proteome", "conditions": "1 µM, 30 min, 37 °C", "inhibition": "< 50%"}
{"Compound": "CCCCCCC#Cc1cncc(-c2nnc(SCc3ccc([N+](=O)[O-])cc3)n2C)c1", "target": "mraY (Staphylococcus aureus, UniProt Q2FZ93)", "assay": "cell-free assay, inhibitor", "conditions": "250 µM", "inhibition": "62%"}
{"Compound": "COc1ccc(S(=O)(=O)N2CCc3ccccc3C2)cc1N1CCN(C(=O)c2ccc(F)cc2C(F)(F)F)CC1", "target": "Htr1d (Rattus norvegicus, UniProt P28565)", "assay": "ligand displacement, radioligand", "conditions": "1 µM", "inhibition": "16.2%"}
{"Compound": "C[Si]1(C[C@H](CN)CC(=O)O)CCCC1", "target": "L-type calcium channel, rat", "assay": "binding, radioligand binding", "conditions": "70 µM", "inhibition": "8%"}
{"Compound": "Cc1c(COc2cc(OCc3cccc(C#N)c3)c(CN3CCCC[C@@H]3C(=O)O)cc2Cl)cccc1-c1cccc(OCc2ccc(/C=C/C(=O)NO)cc2)c1", "target": "HDAC3", "assay": "enzyme activity, inhibitor", "conditions": "1 µM", "inhibition": "59.2%"}
{"Compound": "Cc1cccc(O[C@H]2CCC[C@@H](C(C)CNCc3ccncc3)C2)c1 (relative stereo)", "target": "SPHK1", "assay": "enzyme activity, inhibitor", "conditions": "1 µM", "inhibition": "5%"}
{"Compound": "CCOC(=O)C1(C)C(Br)=C(Cl)C(=O)N1c1ccc(Cl)cc1 (stereo not shown)", "target": "Breakpoint cluster region protein GAP domain", "assay": "GAP activity", "conditions": "10 µM, selectivity counter screen", "inhibition": "-13.6%"}
{"Compound": "O=C1c2sc(-c3ccc(N4CCC(CO)CC4)nc3F)nc2CCN1c1cccnc1", "target": "ADORA2B (Homo sapiens, UniProt P29275)", "assay": "ligand displacement, radioligand", "conditions": "1 µM", "inhibition": "-7%"}
{"Compound": "CC(C)Cn1c(SCC(=O)N2CCc3ccccc3C2)nc2cc(Cl)ccc2c1=O", "target": "SLC6A4 (Homo sapiens, UniProt P31645)", "assay": "ligand displacement, radioligand", "conditions": "10 µM", "inhibition": "-14%"}
{"Compound": "C[Si](C)(C)C[C@H](CN)CC(=O)O", "target": "L-type calcium channel, rat", "assay": "binding, radioligand binding", "conditions": "250 µM, with: [3H](-)-desmethoxyverapamil", "inhibition": "3%"}
{"Compound": "COc1ccc(CN2CC(COc3ccc(C)c(F)c3)CC(F)(F)C2)cc1F (stereo not shown)", "target": "DRD4", "assay": "binding, radioligand binding", "conditions": "10 µM, outcome inactive, with: [3H]N-methylspiperone", "inhibition": "inactive"}
{"Compound": "CN(Cc1ccc(/C=C/C(=O)NO)cc1)CC12CC3CC(CC(C3)C1)C2", "target": "MMP-1", "assay": "enzyme activity", "conditions": "0.05 µM", "inhibition": "-3%"}
{"Compound": "COc1ccc(CN2CC(COc3nc4ccccc4s3)CC(F)(F)C2)cc1F (stereo not shown)", "target": "DRD4", "assay": "ligand displacement, radioligand", "conditions": "10 µM", "inhibition": "11%"}
{"Compound": "CCn1cc(C(=O)O)c(=O)c2c(N)c(F)c(NC3CCCCC3)cc21", "target": "Cyclin-dependent kinase 1, with cyclin A1 (CDK1, Homo sapiens, UniProt P06493)", "assay": "kinase activity", "conditions": "0.1 µM, with: ATP at Km", "inhibition": "3.4%"}
{"Compound": "CCOC(=O)c1cnc2c(C)cc(C)cc2c1NCCCN(C)C", "target": "Breakpoint cluster region protein GAP domain", "assay": "GAP activity", "conditions": "10 µM, selectivity counter screen", "inhibition": "3.59%"}
{"Compound": "Cc1c(COc2cc(OCc3cccc(C#N)c3)c(CNC(C)(CO)CO)cc2Cl)cccc1-c1cccc(OCc2ccc(C(=O)NO)cc2)c1", "target": "HDAC3", "assay": "enzyme activity, inhibitor", "conditions": "1 µM", "inhibition": "33.4%"}
{"Compound": "Cc1cc(C(=O)NCCNC(=O)c2cccc(COc3ccccc3C(N)=O)c2)n[nH]1", "target": "PARP2 (Homo sapiens, UniProt Q9UGN5)", "assay": "enzyme activity, inhibitor", "conditions": "50 nM", "inhibition": "99%"}
